Measurements of several laboratories.
Every numbered part comes from another study and shows a few of its results, in no order. Values joined by “and” are separate records of one study, mostly repeats; a detail may differ.
Chain of UniProt O15264 (whole entry, looked up): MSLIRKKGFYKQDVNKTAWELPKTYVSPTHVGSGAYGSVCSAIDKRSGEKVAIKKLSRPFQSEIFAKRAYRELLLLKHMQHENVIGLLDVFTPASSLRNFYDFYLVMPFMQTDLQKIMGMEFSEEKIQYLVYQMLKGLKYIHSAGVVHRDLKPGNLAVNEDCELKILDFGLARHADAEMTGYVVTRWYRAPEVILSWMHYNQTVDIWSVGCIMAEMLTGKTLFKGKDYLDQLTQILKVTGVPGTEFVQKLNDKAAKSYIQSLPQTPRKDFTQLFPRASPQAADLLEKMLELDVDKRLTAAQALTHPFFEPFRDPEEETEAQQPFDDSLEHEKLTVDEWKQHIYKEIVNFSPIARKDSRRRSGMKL
Chain of UniProt O14920 (whole entry, looked up): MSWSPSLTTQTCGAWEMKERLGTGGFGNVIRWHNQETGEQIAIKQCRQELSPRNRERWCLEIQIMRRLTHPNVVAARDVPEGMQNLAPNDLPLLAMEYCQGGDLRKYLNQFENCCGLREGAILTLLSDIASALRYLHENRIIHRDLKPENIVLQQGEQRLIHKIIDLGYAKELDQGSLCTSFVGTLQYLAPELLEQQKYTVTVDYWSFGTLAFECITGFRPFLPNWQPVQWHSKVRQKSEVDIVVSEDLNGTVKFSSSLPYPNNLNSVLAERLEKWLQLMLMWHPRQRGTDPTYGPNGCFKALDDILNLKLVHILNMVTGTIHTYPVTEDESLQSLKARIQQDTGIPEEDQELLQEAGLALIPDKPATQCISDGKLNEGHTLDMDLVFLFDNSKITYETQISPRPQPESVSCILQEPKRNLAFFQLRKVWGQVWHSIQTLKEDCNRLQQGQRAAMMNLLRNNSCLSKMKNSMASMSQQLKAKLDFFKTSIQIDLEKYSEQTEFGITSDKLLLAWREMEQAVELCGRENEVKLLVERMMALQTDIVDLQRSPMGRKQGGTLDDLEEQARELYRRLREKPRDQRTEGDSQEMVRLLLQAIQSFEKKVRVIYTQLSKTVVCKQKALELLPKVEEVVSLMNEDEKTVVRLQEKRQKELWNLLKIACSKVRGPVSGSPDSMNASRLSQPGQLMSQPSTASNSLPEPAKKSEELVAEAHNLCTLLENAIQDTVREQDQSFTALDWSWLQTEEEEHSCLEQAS
Chain of UniProt P17948 (whole entry, looked up): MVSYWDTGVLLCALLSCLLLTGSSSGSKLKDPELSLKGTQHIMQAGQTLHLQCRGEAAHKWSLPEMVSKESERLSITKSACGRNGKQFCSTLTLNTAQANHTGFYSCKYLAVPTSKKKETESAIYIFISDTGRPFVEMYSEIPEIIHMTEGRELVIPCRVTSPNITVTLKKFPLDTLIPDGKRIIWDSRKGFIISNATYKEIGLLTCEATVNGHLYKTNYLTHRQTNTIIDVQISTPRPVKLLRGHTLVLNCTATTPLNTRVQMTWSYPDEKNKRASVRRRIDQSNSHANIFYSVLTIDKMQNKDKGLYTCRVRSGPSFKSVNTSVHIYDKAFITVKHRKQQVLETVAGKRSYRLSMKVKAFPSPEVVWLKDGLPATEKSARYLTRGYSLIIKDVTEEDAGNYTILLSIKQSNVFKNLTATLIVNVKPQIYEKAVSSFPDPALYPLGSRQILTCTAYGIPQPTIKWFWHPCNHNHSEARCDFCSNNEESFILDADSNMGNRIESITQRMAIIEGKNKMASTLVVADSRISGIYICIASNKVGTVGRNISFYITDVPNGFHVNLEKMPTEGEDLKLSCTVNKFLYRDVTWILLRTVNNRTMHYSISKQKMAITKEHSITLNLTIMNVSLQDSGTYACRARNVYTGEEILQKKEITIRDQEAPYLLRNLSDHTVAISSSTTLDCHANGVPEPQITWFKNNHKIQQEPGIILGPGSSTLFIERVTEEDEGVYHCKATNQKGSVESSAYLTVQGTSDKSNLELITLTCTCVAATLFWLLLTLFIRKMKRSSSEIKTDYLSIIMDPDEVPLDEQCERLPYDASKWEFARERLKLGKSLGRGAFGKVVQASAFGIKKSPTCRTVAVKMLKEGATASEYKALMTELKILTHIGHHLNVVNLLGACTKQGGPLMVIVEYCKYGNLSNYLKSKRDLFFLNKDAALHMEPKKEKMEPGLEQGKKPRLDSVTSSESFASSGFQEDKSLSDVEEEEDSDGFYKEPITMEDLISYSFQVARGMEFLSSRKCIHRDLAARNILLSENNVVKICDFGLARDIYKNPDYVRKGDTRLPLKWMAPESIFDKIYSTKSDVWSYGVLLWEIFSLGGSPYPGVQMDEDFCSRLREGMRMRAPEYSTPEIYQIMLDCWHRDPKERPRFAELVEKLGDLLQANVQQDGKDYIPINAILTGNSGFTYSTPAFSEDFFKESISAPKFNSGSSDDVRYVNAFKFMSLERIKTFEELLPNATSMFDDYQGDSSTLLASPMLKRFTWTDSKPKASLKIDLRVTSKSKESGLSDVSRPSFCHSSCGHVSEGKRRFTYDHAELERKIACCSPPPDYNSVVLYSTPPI
Chain of UniProt P16591 (whole entry, looked up): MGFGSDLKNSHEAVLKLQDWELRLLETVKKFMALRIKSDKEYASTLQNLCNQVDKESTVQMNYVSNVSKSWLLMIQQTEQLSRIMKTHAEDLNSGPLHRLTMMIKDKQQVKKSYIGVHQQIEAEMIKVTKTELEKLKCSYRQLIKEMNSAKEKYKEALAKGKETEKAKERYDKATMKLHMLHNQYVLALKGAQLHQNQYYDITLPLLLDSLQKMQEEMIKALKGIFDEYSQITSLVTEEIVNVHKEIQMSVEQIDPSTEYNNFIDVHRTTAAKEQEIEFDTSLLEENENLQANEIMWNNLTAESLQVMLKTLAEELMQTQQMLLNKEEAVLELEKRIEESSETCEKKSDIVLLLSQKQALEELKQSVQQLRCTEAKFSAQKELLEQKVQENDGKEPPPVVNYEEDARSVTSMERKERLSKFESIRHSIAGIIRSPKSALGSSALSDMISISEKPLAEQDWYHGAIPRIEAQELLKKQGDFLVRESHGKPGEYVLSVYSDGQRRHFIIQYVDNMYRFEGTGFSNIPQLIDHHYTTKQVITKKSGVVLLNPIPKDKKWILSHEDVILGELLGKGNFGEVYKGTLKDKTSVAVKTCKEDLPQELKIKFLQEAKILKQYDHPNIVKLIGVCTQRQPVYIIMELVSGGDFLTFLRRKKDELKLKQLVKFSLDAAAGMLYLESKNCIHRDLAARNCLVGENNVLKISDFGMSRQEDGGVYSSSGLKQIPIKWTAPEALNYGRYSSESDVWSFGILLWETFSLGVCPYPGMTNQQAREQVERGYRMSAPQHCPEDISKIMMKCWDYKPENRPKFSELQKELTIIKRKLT
Chain of UniProt Q8TDX7 (whole entry, looked up): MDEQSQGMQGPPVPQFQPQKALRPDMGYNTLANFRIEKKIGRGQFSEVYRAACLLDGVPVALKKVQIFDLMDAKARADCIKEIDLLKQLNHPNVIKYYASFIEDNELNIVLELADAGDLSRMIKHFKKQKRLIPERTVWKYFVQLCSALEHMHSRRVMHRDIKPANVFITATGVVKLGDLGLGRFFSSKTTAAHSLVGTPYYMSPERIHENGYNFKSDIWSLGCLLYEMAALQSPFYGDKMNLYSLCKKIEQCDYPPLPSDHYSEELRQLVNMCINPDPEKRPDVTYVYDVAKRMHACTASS

Set 1 — mode: degrader; technique: western blot; host: mouse, PK-59 xenograft; sample: tumour; setting: unit not given; relative to: β-actin
Compound: Cc1ncsc1-c1ccc(C(CO)NC(=O)C2CC(O)CN2C(=O)C(C(C)C)n2cc(-c3ccc(COc4c(-c5c(C)c(F)cc6[nH]ncc56)c(C5CC5)cc5c(N6CC7CC6CN7)nc(OC6CCOCC6)nc45)cc3)nn2)cc1 (stereo not drawn)
Target: GTPase KRas (KRAS, Homo sapiens, UniProt P01116, G12D)
setting | KRAS G12D level
30 mg/kg, 48 h | 0.02 and 0.0166 and 0.0186
30 mg/kg, 6 h | 0.0795 and 0.0134 and 0.0446
30 mg/kg, 24 h | 0.0086 and 0.0055 and 0.0052
10 mg/kg, 144 h | 0.0423 and 0.0352 and 0.0446
10 mg/kg, 72 h | 0.0057 and 0.0187 and 0.0116
30 mg/kg, 2 h | 0.0939 and 0.0917 and 0.1

Set 2 — observed: thermal unfolding; technique: differential scanning fluorimetry; tested at: 5.5 µM; direction: higher = more unfolded
Compound: C[C@@H]1CN(c2ccc(-c3cc(C(=O)NCCOCCOCCOCCOCCNC(=O)/C=C/c4[nH]cc(C(=O)N[C@@H](CC(N)=O)c5ccc(F)c(Cl)c5)c4-c4ccc(Cl)cc4F)ccc3F)cc2NC(=O)c2c[nH]c(=O)cc2C(F)(F)F)C[C@H](C)N1C
WDR5: WD repeat-containing protein 5 (WDR5, Homo sapiens, UniProt P61964)
DCAF1: DDB1- and CUL4-associated factor 1 (DCAF1, Homo sapiens, UniProt Q9Y4B6)
Chain of UniProt Q9Y4B6 (whole entry, looked up): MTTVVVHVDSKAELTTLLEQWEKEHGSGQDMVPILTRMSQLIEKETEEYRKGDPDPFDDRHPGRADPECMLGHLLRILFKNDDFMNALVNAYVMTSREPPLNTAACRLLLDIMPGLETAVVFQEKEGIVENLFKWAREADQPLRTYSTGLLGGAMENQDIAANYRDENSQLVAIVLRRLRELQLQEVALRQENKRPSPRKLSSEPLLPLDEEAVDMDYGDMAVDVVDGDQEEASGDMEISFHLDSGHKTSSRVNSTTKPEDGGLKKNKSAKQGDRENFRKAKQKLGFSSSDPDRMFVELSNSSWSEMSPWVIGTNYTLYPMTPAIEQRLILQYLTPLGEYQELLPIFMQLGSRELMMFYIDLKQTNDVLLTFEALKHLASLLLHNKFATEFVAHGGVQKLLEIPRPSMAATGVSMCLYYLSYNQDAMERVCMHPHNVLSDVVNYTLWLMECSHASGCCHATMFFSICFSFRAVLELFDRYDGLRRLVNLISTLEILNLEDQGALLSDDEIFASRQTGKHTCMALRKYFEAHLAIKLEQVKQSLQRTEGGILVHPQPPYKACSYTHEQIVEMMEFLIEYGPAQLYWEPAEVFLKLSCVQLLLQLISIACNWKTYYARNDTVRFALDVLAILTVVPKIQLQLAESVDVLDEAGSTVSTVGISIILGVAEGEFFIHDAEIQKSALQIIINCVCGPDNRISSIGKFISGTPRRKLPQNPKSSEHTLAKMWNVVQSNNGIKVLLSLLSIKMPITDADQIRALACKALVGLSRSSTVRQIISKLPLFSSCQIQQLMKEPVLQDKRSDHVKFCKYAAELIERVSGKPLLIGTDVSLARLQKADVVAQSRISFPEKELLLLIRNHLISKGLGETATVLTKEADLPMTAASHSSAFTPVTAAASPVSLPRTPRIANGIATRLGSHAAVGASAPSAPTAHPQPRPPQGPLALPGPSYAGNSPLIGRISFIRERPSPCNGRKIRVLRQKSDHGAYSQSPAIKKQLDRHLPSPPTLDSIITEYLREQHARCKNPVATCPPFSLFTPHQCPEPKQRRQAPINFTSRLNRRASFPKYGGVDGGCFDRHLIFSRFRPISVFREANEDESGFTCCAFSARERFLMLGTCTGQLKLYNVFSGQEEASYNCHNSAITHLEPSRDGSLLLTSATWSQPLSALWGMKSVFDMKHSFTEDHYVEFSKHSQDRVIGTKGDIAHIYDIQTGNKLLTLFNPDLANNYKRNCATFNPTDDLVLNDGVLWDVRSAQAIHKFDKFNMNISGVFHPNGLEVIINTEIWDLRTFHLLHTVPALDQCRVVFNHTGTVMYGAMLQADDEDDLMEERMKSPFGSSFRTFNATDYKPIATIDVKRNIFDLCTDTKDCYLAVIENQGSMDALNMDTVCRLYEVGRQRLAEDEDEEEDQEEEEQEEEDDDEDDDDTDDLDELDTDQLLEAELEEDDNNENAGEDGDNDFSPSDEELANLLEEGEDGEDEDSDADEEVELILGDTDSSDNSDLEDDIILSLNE
target | setting | SYPRO Orange fluorescence [a.u.]
WDR5 | 53.61 °C | 16700
DCAF1 | 72.01 °C | 53300
WDR5 | 80.41 °C | 41600
WDR5 | 82.81 °C | 48100
WDR5 | 64.81 °C | 14000
WDR5 | 80.21 °C | 41000
DCAF1 | 64.21 °C | 57300
WDR5 | 77.61 °C | 33100

Set 3 — observed: kinase activity
Compound: CN(C1COC1)C(C)(C)/C=C(\C#N)C(=O)N1CCC[C@H]1Cn1nc(-c2ccc(Oc3ccccc3)cc2F)c2c(N)ncnc21
target | setting | inhibition [%]
MET (Homo sapiens, UniProt P08581) | 1 µM | 0
FER (Homo sapiens, UniProt P16591) | 0.1 µM | -4
IKBKB (Homo sapiens, UniProt O14920) | 1 µM | -6
FES (Homo sapiens, UniProt P07332) | 0.1 µM | 6
RPS6KB1 (Homo sapiens, UniProt P23443) | 1 µM | 4
IKBKE (Homo sapiens, UniProt Q14164) | 1 µM | -12
NEK7 (Homo sapiens, UniProt Q8TDX7) | 0.1 µM | 0
PLK4 (Homo sapiens, UniProt O00444) | 1 µM | -3
MAPK13 (Homo sapiens, UniProt O15264) | 1 µM | -7
FLT1 (Homo sapiens, UniProt P17948) | 1 µM | 1
CDK7 (Homo sapiens, UniProt P50613) | 1 µM | -2
PRKD3 (Homo sapiens, UniProt O94806) | 1 µM | 3
Protein kinase C beta type, isoform beta-I (PRKCB, Homo sapiens, UniProt P05771) | 0.1 µM | 5
STK24 (Homo sapiens, UniProt Q9Y6E0) | 1 µM | 0
PAK2 (Homo sapiens, UniProt Q13177) | 0.1 µM | -3

Mixed results
SMILES | target | test | setting | quantity | value
COc1cc(C(=O)OCCCN2CCCN(CCCOC(=O)c3cc(OC)c(OC)c(OCc4ccc([N+](=O)[O-])cc4)c3)CC2)cc(OC)c1OC | Equilibrative nucleoside transporter 1 (SLC29A1, Homo sapiens, UniProt Q99808) | adenosine uptake, inhibitor | together with: [3H]adenosine | Hill slope | -0.958
